Literature values as cited in several papers.
Compare with care: the assays were run in different laboratories. In brackets after ≈: the same amount, converted by molar mass.

SMILES | organism | test | system | conditions | how to read | quantity | result
C[C@@](CCc1ccc(-c2ccccc2)cc1)(C(=O)NO)S(C)(=O)=O | Enterobacter spp. |  |  |  |  | MIC90 | 4 µg/mL (≈ 11.5 µM)
Cc1nc(C(C)C(=O)Nc2ccc(-c3ccccc3)cc2)sc1S(N)(=O)=O (stereo not drawn) | herpes simplex virus 1 | viral replication |  |  |  | EC50 | 0.05 µM
C/C=C/CNC(=N)NCCCCCCCCN1CCCCCCCCNC(=N)NC1=O | Candida glabrata |  |  |  |  | MIC50 | 20 µg/mL (≈ 45.9 µM)
O=c1c2cc([N+](=O)[O-])ccc2n(CCO)n1Cc1ccccc1 | Trypanosoma cruzi |  |  | concentration not given, epimastigotes |  | antiparasitic activity | active
O=C(Nc1ccccc1-c1cc(F)cc(F)c1)c1nccnc1C(F)(F)F | Blumeria graminis |  | barley |  |  | EC80 | 0.5 to 2 mg a.i./L
COC1=CC(c2ccc[nH]2)=NC1=Cc1[nH]c(Cc2ccc(Cl)cc2)cc1Cc1ccc(Cl)cc1 | Plasmodium yoelii |  | multidrug-resistant, mouse | 25 mg/kg/day |  | parasite reduction | 100%
CCN(CC)CC#CCNc1ccnc2cc(Cl)ccc12 | Plasmodium berghei |  | mouse, infected | dose not given, 11 days post infection |  | parasitaemia reduction | ~100%
O=c1ccc2cccc(OCc3cn(-c4ccsc4)nn3)c2[nH]1 | Bacillus cereus |  |  | concentration not given |  | inhibition zone | 7 mm
Cc1ccc(/N=N/c2c(C)c(C(=O)Nc3ccccc3)c(N)n(-c3ccccc3)c2=O)cc1 | Aspergillus fumigatus |  |  |  |  | MIC | 1.95 µg/mL (≈ 4.46 µM)
O=C(Nc1ccccc1-c1ccc(Br)cc1)c1nccnc1C(F)(F)F | Blumeria graminis |  | barley |  |  | EC80 | 0.5 to 2 mg a.i./L
NC(=O)c1c(F)ccc(OCc2nc3cc(Cl)cnc3s2)c1F | Staphylococcus aureus |  | Smith, mouse, infection | intraperitoneal, single dose |  | ED50 | < 3 mg/kg
CCN(CC)c1ccc2nc3c4ccccc4/c(=N/c4ccncc4)cc-3oc2c1 | Trypanosoma brucei rhodesiense |  |  |  | reference: T. brucei rhodesiense over Plasmodium falciparum K1 | IC50 ratio | ≥ 1000 fold
O=C(Nc1ccccc1)c1csc2c(C3CC3)c(Cc3cccc4ccccc34)cc(=O)n12 | Chlamydia trachomatis |  | serovar L2 | 2.5 µM |  | progeny infectivity | decreased
Cc1nc(N(C)C(=O)Cc2ccc(-c3ccccc3)cc2)sc1S(=O)(=O)NCC(F)(F)F | herpes simplex virus 1 | viral replication |  |  |  | EC50 | 0.05 µM
Cc1cc(C)n(N)c(=O)c1C#N | Pseudomonas aeruginosa |  |  | concentration not given |  | inhibition zone diameter | 21.4 mm
CN[C@H](CC(C)C)C(=O)N[C@H]1C(=O)N[C@@H](CC(N)=O)C(=O)N[C@H]2C(=O)N[C@H]3C(=O)N[C@H](C(=O)N[C@H](C(=O)NCCCNC(=N)N)c4cc(O)cc(O)c4-c4cc3ccc4O)[C@H](O)c3ccc(c(Cl)c3)Oc3cc2cc(c3O[C@@H]2O[C@H](CO)[C@@H](O)[C@H](O)[C@H]2O[C@H]2C[C@](C)(NCc3ccc(-c4ccc(Cl)cc4)cc3)[C@H](O)[C@H](C)O2)Oc2ccc(cc2Cl)[C@H]1O | Enterococcus |  | VanA vancomycin-resistant | concentration not given | reference: CBP-vancomycin | activity improvement | ≤ 8 fold
O=C(Nc1ccccc1-c1ccc(C(F)(F)F)c(F)c1)c1nccnc1C(F)(F)F | Blumeria graminis |  | barley |  |  | EC80 | 0.5 to 2 mg a.i./L
O=C1CC(c2cccc(O)c2)Oc2ccc(O)cc21 (stereo not drawn) | Leishmania infantum |  |  | 50 µM |  | inhibition | 31%
O=C(Nc1ccccc1-c1ccc(Cl)c(F)c1)c1nccnc1C(F)(F)F | Puccinia triticina |  | wheat |  |  | EC80 | 2 to 10 mg a.i./L
CSCC[C@H](NC(=O)[C@H](CCCNC(=N)N)NC(=O)[C@H](Cc1c[nH]c2ccccc12)NC(=O)[C@H](CCC(N)=O)NC(=O)[C@H](Cc1c[nH]c2ccccc12)NC(=O)[C@H](CCCNC(=N)N)NC(=O)[C@@H](N)CCCNC(=N)N)C(=O)N[C@@H](CCCCN)C(=O)N[C@@H](CCCCN)C(=O)N[C@@H](CC(C)C)C(=O)NCC(=O)NCCCC[C@H](NC(=O)CNC(=O)[C@H](CC(C)C)NC(=O)[C@H](CCCCN)NC(=O)[C@H](CCCCN)NC(=O)[C@H](CCSC)NC(=O)[C@H](CCCNC(=N)N)NC(=O)[C@H](Cc1c[nH]c2ccccc12)NC(=O)[C@H](CCC(N)=O)NC(=O)[C@H](Cc1c[nH]c2ccccc12)NC(=O)[C@H](CCCNC(=N)N)NC(=O)[C@@H](N)CCCNC(=N)N)C(=O)NCCCCCC(=O)N[C@@H](CSSC[C@H](NC(=O)CCCCCNC(=O)[C@H](CCCCNC(=O)CNC(=O)[C@H](CC(C)C)NC(=O)[C@H](CCCCN)NC(=O)[C@H](CCCCN)NC(=O)[C@H](CCSC)NC(=O)[C@H](CCCNC(=N)N)NC(=O)[C@H](Cc1c[nH]c2ccccc12)NC(=O)[C@H](CCC(N)=O)NC(=O)[C@H](Cc1c[nH]c2ccccc12)NC(=O)[C@H](CCCNC(=N)N)NC(=O)[C@@H](N)CCCNC(=N)N)NC(=O)CNC(=O)[C@H](CC(C)C)NC(=O)[C@H](CCCCN)NC(=O)[C@H](CCCCN)NC(=O)[C@H](CCSC)NC(=O)[C@H](CCCNC(=N)N)NC(=O)[C@H](Cc1c[nH]c2ccccc12)NC(=O)[C@H](CCC(N)=O)NC(=O)[C@H](Cc1c[nH]c2ccccc12)NC(=O)[C@H](CCCNC(=N)N)NC(=O)[C@@H](N)CCCNC(=N)N)C(N)=O)C(N)=O | Escherichia coli |  | ATCC 25922 |  |  | MBC | 15 µM (≈ 102 µg/mL)
COc1ccc(NC2=C(O)C(=O)c3ccccc3C2=O)cc1 | Plasmodium berghei |  | infected mice | dose not given, day 7 | reference: untreated | parasitemia inhibition | 25.9%
CNS(=O)(=O)c1sc(N(C)C(=O)Cc2ccc(-c3ccccc3)cc2)nc1C | herpes simplex virus 1 | viral replication |  |  |  | EC50 | 0.0005 µM
O=C(Nc1ccccc1-c1ccc(F)cc1)c1nccnc1C(F)(F)F | Blumeria graminis |  | barley |  |  | EC80 | 2 to 10 mg a.i./L
COc1ccccc1-c1ccc(CC(=O)N(C)c2nc(C)c(S(N)(=O)=O)s2)cc1 | herpes simplex virus 1 | viral replication |  |  |  | EC50 | 0.002 µM
CC1CC(C)(C)c2cccc(NC(=O)c3cccnc3Cl)c21 (stereo not drawn) | Botrytis cinerea |  | cucumber |  |  | EC80 | 10 to 40 mg a.i./L
CCCCSC[C@H]1CN(Cc2c[nH]c3c(N)ncnc23)C[C@@H]1O | Helicobacter pylori | growth |  |  |  | IC90 | < 0.008 µg/mL
CC1CC(C)(C)c2cccc(NC(=O)c3nccnc3C(F)(F)F)c21 (stereo not drawn) | Botrytis cinerea |  | cucumber |  |  | EC80 | 10 to 40 mg a.i./L
CCCCCCCCCCCCCCCCOCCOP1(=O)COC(Cn2cnc(N)nc2=O)CO1 (stereo not drawn) | human cytomegalovirus |  |  |  | reference: cytotoxicity over antiviral activity | selectivity index | ≥ 24600
O=C(Nc1ccccc1-c1ccc(Cl)c(Cl)c1)c1nccnc1C(F)(F)F | Botrytis cinerea |  | cucumber |  |  | EC80 | 2 to 10 mg a.i./L
C[C@@](CCn1ccc(-c2ccccc2)cc1=O)(C(=O)NO)S(C)(=O)=O | Enterobacter spp. |  |  |  |  | MIC90 | 16 µg/mL (≈ 43.9 µM)
